Published values of several laboratories.
Every numbered part comes from another study and shows a few of its results, in no order.

Block 1 — method: RNA Bind-n-Seq; molecule type: RNA; sample: in vitro; tested at: not given; reference: input RNA pool; reading: higher = stronger binding
Target: RING finger protein unkempt homolog, zinc fingers 1-6, GST-SBP tag (UNK, Homo sapiens, UniProt Q9C0B0, residues 30-357)
Chain of UniProt Q9C0B0 (30-357, looked up): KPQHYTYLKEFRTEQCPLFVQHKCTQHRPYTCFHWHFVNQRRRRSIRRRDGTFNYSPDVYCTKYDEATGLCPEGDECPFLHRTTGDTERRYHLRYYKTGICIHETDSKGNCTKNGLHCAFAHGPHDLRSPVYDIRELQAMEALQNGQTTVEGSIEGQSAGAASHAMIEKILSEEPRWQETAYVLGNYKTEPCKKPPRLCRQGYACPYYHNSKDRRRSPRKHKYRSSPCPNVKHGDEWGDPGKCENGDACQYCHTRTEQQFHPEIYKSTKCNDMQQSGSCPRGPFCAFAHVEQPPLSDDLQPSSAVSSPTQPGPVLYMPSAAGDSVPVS
Setting: RNA with constant flanks, human and mouse sites, ends assumed
Constant ends, left off below: GGGAGUUCUACAGUCCGACGAUC … CAACAGAGGAUUGAGCAUCA
For `UGACUGAAAUAUUAAUAUUUAAAAUACUUCAUUCCUUAAUUCUCCCUCAAUUGCUUUACCCAUAGCCUAUUCAAUUCCUUUGUUUGGCGAACUCUGCAAAAUGUGUUACCCACUACUGAG`, the bound/input enrichment was 1.7 ratio.
The bound/input enrichment of `CGUGCUUUUGAAGAUGAUGAUAUCACGCACGUUGAAGGAAGUGUAGAUCCUAUUCGAGAUAUAGAAAUAAUACAUGAAGAGCUUCAGCUUAAAGAUGAGGAAAUGAUUGGGCCCAUUAUA` is reported as 1.1 ratio.
For `AUUUGGUCAAGAUAUUCACUUGUAAUUAUACCAAAAAAUUGGAGUUUGUUCGCUGUUAAUUUCUUUGUGGGGUCAGCAGGAGCCUCUCAGCUGUUUCGGAUUUGGAGAUAUAACCAAGAA`, the bound/input enrichment was 0.544 ratio.
With `AGAAGUUGCAAGCAGUGUUCCAAAAGUUGUAGGCUCUGCUGUUGGUAGUGGGUCCAUCACUAGUAACAUUGUGGCUUCUAGCAGUUUGCCUCCAGCUACUAUUGCUCCUCCAAAACCAGC` the bound/input enrichment was 0.152 ratio.
With `UGUGGCUUUGGUGGGGUCUUAAGUUGUGGUCUGACACACACUGCUGUGGUUCCCCUGGAUUUAGUGAAAUGCCGUAUGCAGGUGGACCCCCAAAAGUACAAGGGCAUAUUUAACGGAUUC` the bound/input enrichment was 0.203 ratio.
`UCUGCUUGUUCCGGCCACUGCUUGUGUGAGCUUUAUUUUGUGUGUGUGUAUGUGCCUUGGAAUAGAAAACACCCCUUUGCAUUCAAUUUCUCUCAUCCCUAAAAGCUUUUAAAGACAUGC` has a bound/input enrichment of 0.264 ratio.
For `UAUCUGUCUUCCUUAAGUAUUUUUUAGGGUUUUGUUUUUUUUUUUGUUUGUUUGUUUGUUUGUCUUCACUUUUCCCCCAGGUCUGUUGAGCUGUAUGAGAUUCAUUCAUACUUCAUUUAU`, the bound/input enrichment was 34 ratio.
With `CCGUUCAUUCACUGCAGGACCAGGCACGAAAGUUAAAACAAAAUGAAGAUUUUUUCUGAAUCUCAUAAAACAGUGUUUGUUGUGGAUCACUGCCCAUACAUGGCAGAAUCCUGUAGGCAG` the bound/input enrichment was 0.249 ratio.

Block 2 — method: RNA Bind-n-Seq; molecule type: RNA; sample: in vitro; tested at: 365 nM; reference: no-protein control; reading: higher = stronger binding
Target: RNA binding protein fox-1 homolog 2, RRM domain, GST-SBP tag (RBFOX2, Homo sapiens, UniProt O43251-10, residues 100-194)
Setting: natural RNA segment, single round, ends assumed
Constant ends, left off below: GGGAGUUCUACAGUCCGACGAUC … UGGAAUUCUCGGGUGCCAA
Target sequence (chain): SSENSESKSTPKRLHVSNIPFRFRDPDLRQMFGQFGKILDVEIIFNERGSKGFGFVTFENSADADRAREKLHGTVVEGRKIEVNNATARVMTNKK
`UCCGUCGUGGUGGAUGGACUUCACAUCAGCAGCAGUUCUGGUACAGAAUUGUAAUGUGUUUUCAUUUCUCUGUAGGAUUCACCUCUCACCAGCGUCUGUCUUAAAGGUAG`: “RBNS enrichment (R)” 0.212.
For `ACCUGCUUCCGCCUGGAGGAGAGCUGGGCAUCCAUGUUAGCCACAGUUCCUCAUCCACAGUGCUCCCACCUGAGGACCUGGCCCUGUGUGGAAAUUGAUUGGGAUUUGAU`, “RBNS enrichment (R)” read 0.464.
`GCAGGGAGCCGGCUGUGCCCAGUAUGCCUCCUGGACCCUCCAGUUCUGCCACAGGUCUGCCGAUGCCCUGUCCACUGCCUACACAUGACAGACAAGUAACCCCCUCAUGG` — result for “RBNS enrichment (R)”: 0.75.
`AUUAUGGGGAAUUGUACCAAAACAAGAACCAUAUAAAUGAUGCCUAGGGACAAGAAAGAGGAACAAUUCUAUAGCGCACAAUAAAGGAAACCUAAGAAUGGGAGUUACAA` — result for “RBNS enrichment (R)”: 0.51.
Under “RBNS enrichment (R)”, `GCUAUGCUCUAACGAUCACCUCAGUUCUCCCUCGGAUUCUGGGAACAGAUGAAACUUUUUGCAUCGCUUGAGUCAUUUUUAUCACAAUAAUCCUACUGUGAAGCUGUCGU` is recorded as 0.74.
Under “RBNS enrichment (R)”, `AUGCGGAUGAUUUAUGAGAAUAGAGGGGCAGAGUUUGUGAAGUCUAGGGUUUUUUGUCCAGUGGGUUUCAAAUUUGUUGGCUGUUUAAAGACCCUGUCUCCUCCCCCACC` is recorded as 0.368.
`AGUGAAGUAUUUUCAUAGUGAUCUGUGCUCCACUUAAUGUUUCCCAGGGACCAUUAGUGUCUUUUUAAAAUUACAUUUUAUUUCACAUUUCAUAAUUCAGAAGUAAACCU` — result for “RBNS enrichment (R)”: 0.466.
`UUAAAUAUCUAUUUAAAAGAUAGGAAGCUGCUUAUAUAUUUAAUAAUAAAAGAAGUGCACAAGCUGCCAUGUGAGUCGUGGGAAAGUUGCUUUUGGGGUGUGGGUGGCAA` — result for “RBNS enrichment (R)”: 1.01.

Block 3 — method: RNA Bind-n-Seq; molecule type: RNA; sample: in vitro; tested at: 200 nM; setting: whole 134-nt RNA, ends assumed; with: 150 mM KCl; reference: input library; reading: higher = stronger binding
Target: Ras GTPase-activating protein-binding protein 1, full length (G3BP1, Homo sapiens, UniProt Q13283)
Chain of UniProt Q13283 (whole entry, looked up): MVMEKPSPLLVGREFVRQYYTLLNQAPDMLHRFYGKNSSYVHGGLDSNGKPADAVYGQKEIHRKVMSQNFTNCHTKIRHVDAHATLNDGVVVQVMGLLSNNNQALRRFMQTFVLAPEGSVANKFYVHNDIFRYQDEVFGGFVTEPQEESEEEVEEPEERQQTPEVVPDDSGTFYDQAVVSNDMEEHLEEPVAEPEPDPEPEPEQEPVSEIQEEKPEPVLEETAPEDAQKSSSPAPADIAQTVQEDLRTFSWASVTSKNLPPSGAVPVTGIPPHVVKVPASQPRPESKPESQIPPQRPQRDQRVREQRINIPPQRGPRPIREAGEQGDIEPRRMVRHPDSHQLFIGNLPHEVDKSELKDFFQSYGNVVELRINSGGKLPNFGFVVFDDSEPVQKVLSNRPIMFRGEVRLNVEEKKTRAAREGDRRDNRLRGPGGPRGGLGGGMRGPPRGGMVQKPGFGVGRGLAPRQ
Constant ends, left off below: GGGAGUUCUACAGUCCGACGAUC … UGGAAUUCUCGGGUGUCAAGG
With `AGUCCUGUGCUACACAUCGUAUGUACCGAAUCGGGAAAGGGUUUUUUUGGGUUUGGGAAAGUAUUAUGUUACGCCGUUCGGAUCUGCACU` the log2 enrichment was -0.165.
`ACCAUGCAGGUGGGCAUCUUUGGGAAGUGGGGCAAGGGGGGGAUAGGGAGAAAGGUAACACUUUGGGAACAGGUGGUCCCAGGUCGUUUC` gave a log2 enrichment of 1.22.
`UCCUGUGCUACACAUCGUAUGUACCGAAUCGGCCCCCCGGCCCCCCGGGCCCCCCGGGGAAAGUAUUAUGUUACGCCGUUCGGAUCUGCA` gave a log2 enrichment of -0.331.
The log2 enrichment of `AAGUCCUGUGCUACACAUCGUAUGUACCGAAUCGGUGGAAAAAAAGGUUUUUUUGGAAAGUAUUAUGUUACGCCGUUCGGAUCUGCACUU` is reported as -1.53.
The log2 enrichment of `AGUCCUGUGCUACACAUCGUAUGUACCGAAUCGGGUUUUGGGGUUUUGGGUUUUGGGGAAAGUAUUAUGUUACGCCGUUCGGAUCUGCAC` is reported as -0.00629.
The log2 enrichment of `AAGUCCUGUGCUACACAUCGUAUGUACCGAAUCGGAAAAAAAGGUUUGGAAAAAGGAAAGUAUUAUGUUACGCCGUUCGGAUCUGCACUU` is reported as -1.56.
The log2 enrichment of `GUCCUGUGCUACACAUCGUAUGUACCGAAUCGGGGAAAAAGGGAAAAAGGAAAAAGGGGAAAGUAUUAUGUUACGCCGUUCGGAUCUGCA` is reported as -0.295.
The log2 enrichment of `CAAGUCCUGUGCUACACAUCGUAUGUACCGAAUCGGCCCCGGCCCCGGGCCCCGGAAAGUAUUAUGUUACGCCGUUCGGAUCUGCACUUC` is reported as -0.704.
`CCUCAAGUCCUGUGCUACACAUCGUAUGUACCGAAUCGGUGGUUUGGAAAGGAAAGUAUUAUGUUACGCCGUUCGGAUCUGCACUUCCAG` has a log2 enrichment of -0.109.

Block 4 — method: protein binding microarray; molecule type: double-stranded DNA, one strand shown; sample: in vitro; tested at: not given; reference: not given; reading: higher = stronger binding
Target: Histone acetyltransferase KAT6A, winged helix 2, GST fusion (KAT6A, Homo sapiens, UniProt Q92794, residues 85-181)
Setting: 8-mer, flanks averaged, mean of 2 arrays, mostly near background
Construct (chain): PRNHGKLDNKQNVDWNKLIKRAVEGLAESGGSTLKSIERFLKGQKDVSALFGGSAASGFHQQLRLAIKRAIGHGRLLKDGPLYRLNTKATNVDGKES
The E-score of `GTGTGTCA` is reported as 0.0509.
The E-score of `CAGCCGAG` is reported as 0.108.
The E-score of `GCCCCACC` is reported as 0.172.
For `CATATCGA`, the E-score was -0.0468.
For `CCTAGGAA`, the E-score was -0.0679.
`AACGAGAT` gave an E-score of 0.067.
For `CGCAATTA`, the E-score was -0.00696.
With `AAGTATGC` the E-score was -0.057.
The E-score of `TCGTACCA` is reported as 0.0215.
`CATAGTGG` gave an E-score of -0.0425.
`CTGGATTC` has an E-score of 0.0463.
The E-score of `ACACTCGC` is reported as 0.0493.
`CCAAACAC` gave an E-score of 0.017.
With `ACAGAGGT` the E-score was -0.0697.
For `GAATGACC`, the E-score was -0.141.
With `AGCTTATG` the E-score was -0.0422.
`AACCATCC` gave an E-score of 0.0887.
`AAGGCCAA` has an E-score of -0.0326.
The E-score of `ATGCTAAT` is reported as 0.0108.
The E-score of `AAAGCGCG` is reported as 0.0687.
